Assay results collected from several papers.
Numbered parts are unrelated; each lists some results of a single study. Substitutions count along the parent as printed.

Study 1
Target: RING finger protein unkempt homolog, zinc fingers 1-6, GST-SBP tag (UNK, Homo sapiens, UniProt Q9C0B0, residues 30-357)
Sequence of UniProt Q9C0B0 (30-357, looked up): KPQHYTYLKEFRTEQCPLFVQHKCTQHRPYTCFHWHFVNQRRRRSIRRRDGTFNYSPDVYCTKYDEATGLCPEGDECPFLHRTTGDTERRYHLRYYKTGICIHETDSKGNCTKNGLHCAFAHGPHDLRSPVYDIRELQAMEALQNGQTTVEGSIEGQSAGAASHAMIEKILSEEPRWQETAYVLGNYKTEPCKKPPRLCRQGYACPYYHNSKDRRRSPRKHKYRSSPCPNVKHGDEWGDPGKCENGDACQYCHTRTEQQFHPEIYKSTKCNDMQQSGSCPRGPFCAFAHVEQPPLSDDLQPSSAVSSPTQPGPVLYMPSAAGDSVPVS
Technique: RNA Bind-n-Seq
Form: RNA
Sample: in vitro
Concentration: not given
Setting: RNA with constant flanks, human and mouse sites, ends assumed
Relative to: input RNA pool
Reading: higher = stronger binding
All sequences stand within: GGGAGUUCUACAGUCCGACGAUC … CAACAGAGGAUUGAGCAUCA
| Sequence | bound/input enrichment [ratio] |
| --- | --- |
| GCCCGCGUGCGCCAUCCCCUCAGCUAGCAGGUGUGAGAGGCUUUCUACCCGCGGUCUCCACACAGCUCAACAUCUUGCCGCCUCCUCCGAGCCUGAAGCUACCGUGGACUCUGCUGUGGC | 0.332 |
| GCCUCGCCCGCCUGGCAGCCUAACCCUCCUUCUCUUCUUCUCCUCUCCGGCUUCGCGCGGCCCUGCCUCCCUCUCGCCCGGCGGCAUCCGCUUGCUGCUGCCACCGCCUCCUCAUCUUCU | 0.379 |
| GAUGCUUUGAACAUUGAAACAGCCAUCAAGACCAAAGGUGUGGAUGAGGUCACCAUUGUCAACAUUUUGACCAACCGCAGCAAUGCACAGAGACAGGAUAUUGCCUUCGCCUACCAGAGA | 0.17 |
| GAAUUUGCCUAUACUUCUGUACUAAGUUUUGACUUUUGUAGCAUGGCUGAUGUAGCCGUCUUAGCUCGCCACCUUUUUAUGUCAGAAGUUUUAGAAAUUUGUGAAAGUGUACAUAAACUA | 0.465 |
| GUUAUUGAAAAACUGUUAACCUCUUACGGAUUUAUUCAGUGUUCAGAACGUCAAGCUAGACUUUUCUUCCACUGUUCACAGUAUAAUGGCAACCUGCAAGACUUAAAAGUAGGAGAUGAU | 0.386 |
| UACGACUACUCGCCCUAUGGCUAUUACGGCUACGGCCCCGGCUACGACUACAGUCAGGGUAGUACAAACUACGGCAAGAGCCAGCGACGUGGUGGCCAUCAGAAUAACUACAAGCCAUAC | 0.146 |
| CACCGCAACCUUUCCUUUUUCCCCCAGUGAUUCUGAAAAACCCCUCUUCCCUUCAGCUUGCUUAGAUGUUCCAAAUUUAGUAAGCUUAAGGCGGCCUACAGAAGAAAAAGAAAAAAAAGG | 0.435 |
| CCAAGAAGGGCCUCCAACAGGCAAAUUCAGGGAGAGGAUGGUUUCAGGGAAUAUCAGUUUAUUAGUGGGUCAUGAAUUAUAGACUUAACAGUAAUGGUUUGUGGUAGGAAGAUCACAACU | 0.949 |
| UGGUUACACUAGAAGUCAAGCCCAUUAGGGAUUUUCAUUUUUUUUCAUUUGGUUGUUGAGAAGUUUCAAAAAUCAGUUUUCAAGCUGUGGUCUUUCAAACACAUCUGCACAUAAGUCACA | 3.18 |
| AAAAGUAAGAAUGCUUUUGAUUAUUCUGAAGGAACUGACACAGCAGUAGAUCUGACUUCAGGGAGAGUUACUACAGGUGAGGUAAUGGAUUAUUCAAGCAAGACUACAGGUCCAUAUCCA | 0.172 |
| GAGUUUCUUGCUUUGACAUUCAGUGAAAAUGAGAAAAACGCUGCGUACUAUGCGUUAGCAAUAGUGCAUGGAGCGGCCGCUUAUCUCCCAGACUUCUUGGACUACUUUGCUUUUAAUUUU | 0.0732 |

Study 2
Target: RNA binding protein fox-1 homolog 2, RRM domain, GST-SBP tag (RBFOX2, Homo sapiens, UniProt O43251-10, residues 100-194)
Technique: RNA Bind-n-Seq
Form: RNA
Sample: in vitro
Concentration: 365 nM
Setting: natural RNA segment, single round, ends assumed
Relative to: no-protein control
Reading: higher = stronger binding
All sequences stand within: GGGAGUUCUACAGUCCGACGAUC … UGGAAUUCUCGGGUGCCAA
Target sequence (chain): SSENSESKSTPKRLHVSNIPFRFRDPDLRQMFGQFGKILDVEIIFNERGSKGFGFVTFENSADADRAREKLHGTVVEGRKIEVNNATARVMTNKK
| Sequence | RBNS enrichment (R) |
| --- | --- |
| ACCCUUUUUGUAAAUGUCAAGGACAUUUGGAUUUACUUUUACAGAAUAUUGAAAAGAUAAGACAAAUUAUAAAUAAGUUCUAAAACAUAAAUUUAAUUCAUCUCUGCAUA | 1.09 |
| GCCCUGUCUACUUGGGCACCCCCACCACCUGUUAGCUGUGGUUGUGCACUGUCUUUUGUAGCUCUGGACUGGAGGGGUAGAUGGGGAGUCAAUUACCCAUCACAUAAAUA | 1.19 |
| CUUUGAGUCCUCCAAGAAAGAUGAUACUUGGUUCAUUUCAAAAAACCAAAUGCAGACAAAUGGGAGAACCAGUUCCCCAGCUUAUGUUAGCAUAGUCAACAGCGAGCAUA | 0.314 |
| AUGGAUAUCGCUUUGUUUUCCUUUGAAAGUAAUUAUAUCUUAAGAACAUAGUAUCAUGAAUGGAGUAGACAGGGAGGCUGCAGAAGCCAUUUCUCUUUGUAGAUAAAAAG | 0.486 |
| UUCUUCCCUUCCUUUGUUUUCAUAAGCCUUUGGUAUCUUUCCUGCCCUUUUCCUUUGUGUACUCUAUACUGGAGUUCCCUUCUUCCUCUUGCUGUAGGCUCAAUCCCAUA | 1.16 |
| CAUCCCAGUGUAGGCUCUGAGGCCACAUGGAAACUCUAGAUGGUUCUGAUCACUCUAGCCACCGGAGGAUGAAAGGGAUCUUUUGCAUAGCAGAGGAUUUUAUACACAAA | 0.271 |
| AAGUUUUAGGGUCUGGGCUGAGUCAAGGUGAGUUCCUCUGCCAGGAAGCCCUUUCUAGGAGGUUGUGUCGGCCCCAGCAGGGGCUCUCAGCUUCUCCCCAUCCAGAAACC | 0.338 |
| AGGGAACUCUUGGUACCUGGAAAUGUGAAUCUGGAAUAUUACCUGUGUCAUCAAAGUAGUGAUGGAUUCAGUACUCCUCAACCACUCUCCUAAUGAUUGGAACAAAAGCA | 2.11 |
| UAAAAAUAUUCAUCUACCAUUACUGUUAUUUGCUGAUUUUGUUUUAUUUUUUGAUGGUAAUAUUCUAUCCUUAUGACACUAUUGCAACCAAAUUGGCUUUACCAUCUUGG | 1.24 |
| CUUUUCAUUCUCCUCCUCCUCCCUCCUCACUCCCUAGGCCCAAGUCUCCUAGGGGCUUGGUCCUAGGGUGGGAAGGGGCUAGGGAGGACCAAAGGGAUGGUAUUGAGAAG | 0.181 |
| AACGAAGAGCUUCUAUGAAAACCCUCACCUUUCCAUGUCCCAAAAACCAACACAAGUCCCUGGGGCGGGUGGAGAAGAUGGUGGAGCCCCGUGAGACGGGGCUUCUGUGU | 0.301 |
| AAGUUAAAUGUAGAUUCACAGAUACAUUUACUUUCAGAAUCCUCAAGAGGAUUUCAAAUGCUAACUUUUAGUUUCUUGGGAUUGAUCAAGGCAAGAGAAGUGGCUUUAAC | 0.385 |

Study 3
Target: Prothrombin, mature alpha-thrombin (F2, Homo sapiens, UniProt P00734)
Technique: aptamer microarray, sandwich
Form: DNA with 2'F-ANA
Sample: in vitro
Concentration: 200 nM
Setting: whole 15-mer aptamer, many near background
Together with: Cy3 exosite-II aptamer, 400 nM
Reading: higher = stronger binding
Sequence: GGTTGGTGTGGTTGG
| Modification | mean fluorescence intensity [a.u.] |
| --- | --- |
| 2'F-ANA at 3 4 6 7 8 11 13 14 15 | 244 |
| 2'F-ANA at 1 4 6 9 10 13 14 | 45.4 |
| 2'F-ANA at 3 5 6 7 8 9 13 14 15 | 52.5 |
| 2'F-ANA at 4 5 7 10 12 14 15 | 44.6 |
| 2'F-ANA at 1 2 4 5 6 9 12 13 14 15 | 46.8 |
| 2'F-ANA at 1 3 4 5 6 7 9 11 12 13 14 | 56.4 |
| 2'F-ANA at 3 9 11 13 | 997 |
| 2'F-ANA at 2 3 4 5 6 7 9 10 11 15 | 51.2 |
| 2'F-ANA at 2 4 7 8 9 11 12 15 | 784 |
| 2'F-ANA at 1 2 8 9 12 | 391 |
| 2'F-ANA at 3 4 5 8 9 10 13 14 15 | 59.6 |
| 2'F-ANA at 2 3 4 5 6 8 9 10 12 14 | 52.8 |
| 2'F-ANA at 1 4 5 8 9 13 14 | 45.3 |
| 2'F-ANA at 3 5 6 9 15 | 109 |
| 2'F-ANA at 1 3 7 15 | 410 |
| 2'F-ANA at 1 2 3 9 10 11 13 14 | 82.4 |
| 2'F-ANA at 3 4 5 7 8 10 12 14 15 | 57.4 |
| 2'F-ANA at 1 2 3 4 6 8 12 15 | 391 |
| 2'F-ANA at 2 3 4 5 6 7 9 11 13 | 55.9 |

Study 4
Target: ABI1, truncated, D143A, DHFR fusion (Arabidopsis thaliana)
Technique: DHFR PCA, deep sequencing
Sample: yeast
Setting: methotrexate growth selection, single substitutions
Together with: (+)-ABA 4.8 µM
Relative to: wild-type fitted maximum
Reading: higher = stronger binding
Parent: PYL1, truncated, DHFR fusion (Arabidopsis thaliana); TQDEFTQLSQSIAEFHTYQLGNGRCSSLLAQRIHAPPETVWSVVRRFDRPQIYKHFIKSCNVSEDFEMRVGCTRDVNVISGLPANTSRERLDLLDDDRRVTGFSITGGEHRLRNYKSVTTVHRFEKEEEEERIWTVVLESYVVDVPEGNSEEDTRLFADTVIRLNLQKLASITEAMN
| Variant | relative binding score |
| --- | --- |
| N114W | -2.73% |
| D75V | 85.4% |
| S104D | -11.7% |
| F103P | -12.6% |
| R99C | 61.7% |
| P50C | -8.94% |
| Q7A | 78.2% |
| V44G | 4.28% |
| V143L | 6.11% |
| R49Y | 34.1% |
| I57E | 0.835% |
| V121L | 47.5% |
| F5E | 56.5% |

Some of these lines once more (study 3):
| Modification | mean fluorescence intensity [a.u.] |
| --- | --- |
| 2'F-ANA at 3 4 5 8 9 10 13 14 15 | 59.6 |
| 2'F-ANA at 1 2 3 4 6 8 12 15 | 391 |
| 2'F-ANA at 2 3 4 5 6 8 9 10 12 14 | 52.8 |
| 2'F-ANA at 3 4 6 7 8 11 13 14 15 | 244 |
| 2'F-ANA at 3 5 6 7 8 9 13 14 15 | 52.5 |
| 2'F-ANA at 1 3 4 5 6 7 9 11 12 13 14 | 56.4 |
| 2'F-ANA at 2 4 7 8 9 11 12 15 | 784 |
| 2'F-ANA at 1 4 5 8 9 13 14 | 45.3 |
